Assay results pooled from the literature.
Compare with care: the assays were run in different laboratories. ± marks the error that the study gave.

SMILES = NC1CCN(C(=O)Oc2ccc(C3CCCC4(C3)OOC3(O4)C4CC5CC(C4)CC3C5)cc2)CC1 (racemic); system = male Sprague-Dawley rat, plasma; setting = oral, 50 mg/kg; quantity = AUC(0-t); result = 4010 ng·h/mL
SMILES = CC(C)[C@H](NC(=O)[C@@H](NC(=O)[C@H](CCCNC(=N)N)NC(=O)[C@H](CCCNC(=N)N)NC(=O)[C@H](CCCNC(=N)N)NC(=O)[C@H](CCC(N)=O)NC(=O)[C@H](CCCNC(=N)N)NC(=O)[C@H](CCCNC(=N)N)NC(=O)[C@H](CCCCN)NC(=O)[C@H](CCCCN)NC(=O)[C@H](CCCNC(=N)N)NC(=O)CN)[C@@H](C)O)C(=O)N[C@H](C(=O)N[C@@H](CO)C(=O)N1CCC[C@H]1C(=O)O)[C@@H](C)O; system = ICR mice, female, spleen; setting = intranasal, 20 mg/kg daily, 4 weeks; quantity = organ weight; result = 0.089 ± 0.028 g
SMILES = CN1Cc2cc(Cl)ccc2-n2c(nnc2C2CCN(c3cccc(F)n3)CC2)C1; system = male Sprague-Dawley rat, plasma; setting = intravenous, 0.03 mg/kg; quantity = AUC; result = 7.86 ng·h/mL
SMILES = CC[C@H](C)[C@H](NC(=O)[C@H](CCCCN)NC(=O)CNC(=O)[C@H](CC(C)C)NC(=O)[C@H](Cc1ccccc1)NC(=O)[C@H](CCCCN)NC(=O)[C@H](CO)NC(=O)[C@H](Cc1ccccc1)NC(=O)[C@H](Cc1c[nH]c2ccccc12)NC(=O)[C@H](CCC(N)=O)NC(=O)[C@@H](NC(=O)[C@H](Cc1ccccc1)NC(=O)CCCCCNC(=O)CN1CCN(CC(=O)O)CCN(CC(=O)O)CCN(CC(=O)O)CC1)C(C)C)C(=O)N[C@@H](CCC(=O)O)C(=O)N1CCC[C@H]1C(=O)N[C@@H](CC(=O)O)C(=O)N[C@H](C(=O)N[C@@H](CO)C(=O)N[C@@H](CCC(N)=O)C(=O)N[C@H](C(=O)N[C@@H](CCC(N)=O)C(=O)N[C@@H](CC(=O)O)C(=O)N1CCC[C@H]1C(=O)N[C@@H](CC(N)=O)C(=O)N[C@@H](CC(=O)O)C(=O)N[C@@H](CCC(N)=O)C(=O)N[C@@H](Cc1ccc(O)cc1)C(=O)N[C@@H](CCC(=O)O)C(=O)N1CCC[C@H]1C(=O)N[C@@H](Cc1ccccc1)C(=O)O)C(C)C)C(C)C [copper-64 labelled]; system = C57BL/6 mice, male, tumour-free, brain; setting = 24 h; quantity = tissue uptake; result = 0.43 ± 0.02 %ID/g
SMILES = CSCC[C@H](NC(=O)CNC(=O)[C@H](CCCCN)NC(=O)[C@H](CC(C)C)NC(=O)[C@@H]1CCCN1C(=O)[C@H](CO)NC(=O)[C@H](Cc1c[nH]cn1)NC(=O)[C@H](Cc1c[nH]c2ccccc12)NC(=O)[C@H](CCCNC(=N)N)NC(=O)[C@H](CC(C)C)NC(=O)[C@H](CCCNC(=N)N)NC(=O)[C@H](Cc1c[nH]c2ccccc12)NC(=O)[C@H](CS)NC(=O)CCCCCNC(=O)CN1CCN(CC(=O)O)CCN(CC(=O)O)CCN(CC(=O)O)CC1)C(=O)O [copper-64 labelled]; assay = ex vivo biodistribution; system = male C57BL/6J mice, pancreas; setting = intravenous, 1.85 MBq, 30 h, B16-F10 tumour-bearing; quantity = tissue uptake; result = 1.18 %ID/g
SMILES = CC[C@H](C)[C@H](NC(=O)[C@H](C)NC(=O)[C@H](CCCCN)NC(=O)[C@H](CC(C)C)NC(=O)[C@@H](N)Cc1ccccc1)C(=O)N[C@@H](CCCCN)C(=O)N[C@@H](CCCCN)C(=O)N[C@@H](Cc1ccccc1)C(=O)NCC(=O)N[C@@H](CCCCN)C(=O)N[C@@H](CCC(=O)O)C(=O)N[C@@H](Cc1ccccc1)C(=O)N[C@@H](CCCCN)C(=O)N[C@@H](CCCCN)C(=O)N[C@H](C(=O)NCC(=O)N[C@@H](C)C(=O)N[C@@H](CCCCN)C(=O)N[C@@H](CC(C)C)C(=O)N[C@@H](CCCCN)C(=O)O)[C@@H](C)CC; system = human red blood cells; setting = 8 mg/L, 1 h, mean of replicates; quantity = hemolysis; result = 0.245%
SMILES = Cn1nc(NS(C)(=O)=O)c2c(Cl)ccc(-n3c([C@H](Cc4cc(F)cc(F)c4)NC(=O)Cn4nc(C(F)F)c5c4C(F)(F)[C@@H]4C[C@H]54)nc4nc(OCCC(F)(F)F)ccc4c3=O)c21; system = human, plasma; setting = oral, 625 mg single dose, powder in bottle, geometric mean; quantity = AUC(0-inf); result = 24400 ng·h/mL
SMILES = CC(C)C[C@H](NC(=O)CNC(=O)[C@H](Cc1ccccc1)NC(=O)[C@@H](NC(=O)[C@@H](NC(=O)c1cccc(S(=O)(=O)F)c1)[C@@H](C)O)C(C)C)C(=O)N[C@@H](CC(N)=O)C(=O)N[C@H](C(=O)N[C@@H](Cc1c[nH]c2ccccc12)C(=O)N[C@@H](CCCCN)C(=O)N[C@@H](CCCNC(=N)N)C(=O)N[C@@H](Cc1ccc(O)cc1)C(=O)N[C@@H](CO)C(=O)N[C@@H](CCCCN)C(=O)NCC(=O)N[C@@H](CCCCNc1ccc([N+](=O)[O-])cc1[N+](=O)[O-])C(N)=O)C(C)C; assay = chemical stability, LC-MS, item: intramolecular amine attack product; system = PBS/DMSO/water; setting = 52 µM, 24 h, 10% DMSO, 80% water; quantity = degraded peptide; result = ~50%
SMILES = CSCC[C@H](N)C(=O)N[C@@H](C)C(=O)N[C@@H](Cc1c[nH]c2ccccc12)C(=O)N[C@@H](Cc1c[nH]cn1)C(=O)N[C@@H](CC(=O)O)C(=O)N[C@@H](CC(=O)O)C(=O)N[C@@H](CCC(=O)O)C(=O)N[C@@H](CCC(=O)O)C(=O)N[C@@H](Cc1ccccc1)C(=O)N[C@@H](C)C(=O)N[C@@H](CCCNC(=N)N)C(=O)N[C@@H](CCCNC(=N)N)C(=O)N[C@@H](CCCNC(=N)N)C(=O)N[C@@H](CCCNC(=N)N)C(=O)NCCCCCC(=O)NCCCCC(NC(=O)CCCCCNC(=O)[C@H](CCCNC(=N)N)NC(=O)[C@H](CCCNC(=N)N)NC(=O)[C@H](CCCNC(=N)N)NC(=O)[C@H](CCCNC(=N)N)NC(=O)[C@H](C)NC(=O)[C@H](Cc1ccccc1)NC(=O)[C@H](CCC(=O)O)NC(=O)[C@H](CCC(=O)O)NC(=O)[C@H](CC(=O)O)NC(=O)[C@H](CC(=O)O)NC(=O)[C@H](Cc1c[nH]cn1)NC(=O)[C@H](Cc1c[nH]c2ccccc12)NC(=O)[C@H](C)NC(=O)[C@@H](N)CCSC)C(=O)NCCCCC(NC(=O)C(CCCCNC(=O)CCCCCNC(=O)[C@H](CCCNC(=N)N)NC(=O)[C@H](CCCNC(=N)N)NC(=O)[C@H](CCCNC(=N)N)NC(=O)[C@H](CCCNC(=N)N)NC(=O)[C@H](C)NC(=O)[C@H](Cc1ccccc1)NC(=O)[C@H](CCC(=O)O)NC(=O)[C@H](CCC(=O)O)NC(=O)[C@H](CC(=O)O)NC(=O)[C@H](CC(=O)O)NC(=O)[C@H](Cc1c[nH]cn1)NC(=O)[C@H](Cc1c[nH]c2ccccc12)NC(=O)[C@H](C)NC(=O)[C@@H](N)CCSC)NC(=O)CCCCCNC(=O)[C@H](CCCNC(=N)N)NC(=O)[C@H](CCCNC(=N)N)NC(=O)[C@H](CCCNC(=N)N)NC(=O)[C@H](CCCNC(=N)N)NC(=O)[C@H](C)NC(=O)[C@H](Cc1ccccc1)NC(=O)[C@H](CCC(=O)O)NC(=O)[C@H](CCC(=O)O)NC(=O)[C@H](CC(=O)O)NC(=O)[C@H](CC(=O)O)NC(=O)[C@H](Cc1c[nH]cn1)NC(=O)[C@H](Cc1c[nH]c2ccccc12)NC(=O)[C@H](C)NC(=O)[C@@H](N)CCSC)C(N)=O (stereo partly shown); system = C57BL/6 mouse female, ovary; setting = dose not given, 6 h; scale = reference: total; quantity = mean tissue distribution; result = 0.31%
SMILES = CC[C@H](C)[C@H](NC(=O)[C@H](Cc1ccc(O)cc1)NC(=O)[C@H](C)NC(=O)[C@H](CC(=O)O)NC(=O)[C@H](CC(C)C)NC(=O)[C@H](C)NC(=O)[C@H](C)NC(=O)[C@H](CCCCN)NC(=O)CNC(=O)[C@@H](NC(=O)[C@H](Cc1c[nH]cn1)NC(=O)[C@H](CCCCN)NC(=O)CNC(=O)[C@@H](NC(=O)[C@H](Cc1c[nH]cn1)NC(=O)[C@@H](NC(=O)[C@H](C)NC(=O)[C@H](CCCCN)NC(=O)[C@H](CCCCN)NC(=O)[C@@H](NC(=O)[C@H](Cc1c[nH]c2ccccc12)NC(=O)[C@H](CCCCN)NC(=O)[C@H](CCCNC(=N)N)NC(=O)[C@H](Cc1c[nH]c2ccccc12)NC(=O)CN)[C@@H](C)CC)[C@@H](C)O)C(C)C)[C@@H](C)CC)C(N)=O; system = zebrafish embryos 4 hpf, E3 medium; setting = 24 h; quantity = chronic toxic concentration; result = 5 µM
SMILES = CC(C)C[C@@H](NC(=O)[C@@H](CCCNC(=N)N)NC(=O)[C@@H](Cc1c[nH]cn1)NC(=O)[C@@H](Cc1c[nH]c2ccccc12)NC(=O)[C@@H](Cc1c[nH]cn1)NC(=O)[C@@H](Cc1ccccc1)NC(=O)[C@H](NC(=O)[C@@H](Cc1ccc(O)cc1)NC(=O)CNC(=O)CNC(=O)CCOCCOCCOCCNC(=O)CN1CCN(CC(=O)O)CCN(CC(=O)O)CC1)[C@H](C)O)C(=O)N[C@H](CC(N)=O)C(=O)N1CCC[C@@H]1C(=O)O [gallium-68 labelled]; system = C57BL/6 mice, male, kidney; setting = intravenous, 1.85 MBq, 60 min, with: GP12 blocking; quantity = tissue uptake; result = 33.6 ± 3.25 %ID/g
SMILES = N#[11C]c1ccc(-c2csc(NN=C3CCCC3)n2)cc1; system = C57BL/6 mouse, male; setting = intravenous, 3 MBq, 60 min; quantity = uptake in testis; result = 0.9 ± 0.48 %ID/g
SMILES = CC(C)C[C@@H](NC(=O)[C@@H](CCCCN)NC(=O)CNC(=O)CNC(=O)[C@@H]1CSSC[C@H](N)C(=O)NCC(=O)N[C@@H](CCCNC(=N)N)C(=O)N[C@@H](CCCNC(=N)N)C(=O)N[C@@H](C)C(=O)NCC(=O)NCC(=O)N[C@@H](CO)C(=O)N1)C(=O)N[C@H](C)C(=O)N[C@H](CCCCN)C(=O)N[C@H](CC(C)C)C(=O)N[C@H](C)C(=O)N[C@H](CCCCN)C(=O)N[C@H](CCCCN)C(=O)N[C@H](CC(C)C)C(=O)N[C@H](C)C(=O)N[C@H](CCCCN)C(=O)N[C@H](CC(C)C)C(=O)N[C@H](C)C(=O)N[C@H](CCCCN)C(=O)O; system = mouse, plasma; setting = intravenous, 15 mg/kg; quantity = AUC; result = 164000 ng·h/mL
